Experimental data collected from several papers.
Lines come from different studies, so protocols differ. ± gives the spread as reported.

| Substance | organism | test | system | setting | IC50 |
| --- | --- | --- | --- | --- | --- |
| O=C(O)c1ccc(-c2cc3cccc([N+](=O)[O-])c3[nH]c2=O)cc1 | Trypanosoma brucei | parasite growth, resazurin |  | 74 h, trypomastigote | 1.5 µM |
| CN(C)Cc1ccc(S(=O)(=O)n2ccc(/C=C/C(=O)NO)c2)cc1 | Lucilia cuprina | larval weight gain | LS strain, larvae on impregnated cotton wool | 24 h | 556 µg |
| Cc1ccc(Cn2cc(/C=N/N3C(=O)CSC3=S)c3cc([N+](=O)[O-])ccc32)cc1 | Leishmania major | parasite growth, resazurin | THP-1 | 24 h, intracellular, amastigote | > 10 µM |
| CCCCCCCCCCCCCCCCOP(=O)([O-])OCC[N+](C)(C)C | Leishmania donovani | parasite growth | THP-1 | intracellular, amastigote | 1.97 µM |
| O=C(O)c1cccc(-c2cc3cccc([N+](=O)[O-])c3[nH]c2=O)c1 | Trypanosoma brucei | parasite growth, resazurin |  | 74 h, trypomastigote | 7.5 µM |
| COc1ccccc1NC(=O)c1ccccc1Oc1ccc(N)cc1 | Human immunodeficiency virus 1 | viral replication | MT4 | 7 days | 72.2 µM |
| CCN1CCOCC1c1ccc(Nc2ccnc3cc(Cl)ccc23)cc1 (stereo not shown) | Plasmodium falciparum | parasite growth, SYBR Green | DD2 | 72 h, drug-resistant strain, blood stage | ≥ 0.25 µM |
| Ac-LCDCPNGPWAWVPAFCQAVG-OH (cysteine pairing not given here) (N-acetyl) | HIV-1 NL4-3 | viral replication | CEMx174 SEAP reporter | 3 d | 19 ± 6.83 µM |
| COc1ccccc1S(=O)(=O)Nc1ccccc1Sc1ccc([N+](=O)[O-])cc1 | Human immunodeficiency virus 1 | viral replication | MT4 | 7 days | 39 µM |
| C#CCn1cc(/C=N/N2C(=O)CSC2=S)c2cc([N+](=O)[O-])ccc21 | Leishmania major | parasite growth, resazurin | THP-1 | 72 h, intracellular, amastigote | 8.6 µM |
| CCCC(CCC)C(=O)O | Lucilia cuprina | larval weight gain | LS strain, larvae on impregnated cotton wool | 24 h | > 1000 µg |
| CS(=O)(=O)c1ccc(-c2cnc(N)c(-c3ccc(C(F)(F)F)nc3)c2)cc1 | Plasmodium cynomolgi | hypnozoite (small EEF) growth | primary rhesus hepatocytes | day 5, compound added at 120 h | > 10 µM |
| O=C1CSC(=S)N1/N=C/c1c[nH]c2ccc([N+](=O)[O-])cc12 | Trypanosoma congolense |  | trypomastigotes, IL3000 |  | > 61 µM |
| CCN1CCN(c2ccc(Nc3ccnc4cc(Cl)ccc34)cc2)CC1 | Plasmodium falciparum | parasite growth, SYBR Green | D6 | 72 h, blood stage | 0.01 µM |
| O=C1NC(=S)S/C1=C\c1cn(Cc2cccc(Cl)c2)c2ccc([N+](=O)[O-])cc12 | Leishmania major | parasite growth, resazurin | THP-1 | 72 h, intracellular, amastigote | 2.73 µM |
| Nc1ccccc1NC(=O)c1ccc(CNC(=O)OCc2cccnc2)cc1 | Lucilia cuprina | larval weight gain | LS strain, larvae on impregnated cotton wool | 24 h | 680 µg |
| C#CCn1cc(/C=C2\SC(=S)NC2=O)c2cc([N+](=O)[O-])ccc21 | Trypanosoma congolense |  | trypomastigotes, IL3000 |  | > 78 µM |
| COc1ccccc1NC(=O)c1ccccc1Oc1ccc([N+](=O)[O-])cc1 | Human immunodeficiency virus 1 | viral replication | MT4 | 7 days | 15.2 µM |
| 5′-deoxy-5′-Pro-DADMe-ImmA | Campylobacter jejuni | growth, optical density | Mueller-Hinton broth | 16.4 h | 3.1 ± 0.2 µM |

A few entries again:
| Substance | organism | test | system | setting | IC50 |
| --- | --- | --- | --- | --- | --- |
| COc1ccccc1S(=O)(=O)Nc1ccccc1Sc1ccc([N+](=O)[O-])cc1 | Human immunodeficiency virus 1 | viral replication | MT4 | 7 days | 39 µM |
| C#CCn1cc(/C=N/N2C(=O)CSC2=S)c2cc([N+](=O)[O-])ccc21 | Leishmania major | parasite growth, resazurin | THP-1 | 72 h, intracellular, amastigote | 8.6 µM |
| CCCC(CCC)C(=O)O | Lucilia cuprina | larval weight gain | LS strain, larvae on impregnated cotton wool | 24 h | > 1000 µg |
